# Assay results gathered from unrelated publications.
# Each numbered part is a random draw from the data of one study; scales do not carry over between parts. Positions count from the first letter of the parent shown.

# Series 1 — target: CCNE1, cyclin fold, Cln2 fusion (human); technique: yeast growth competition, sequencing; sample: yeast; setting: strong parent motif; reference: not given; reading: higher = stronger binding
# Starting sequence: INSM1 docking peptide (human); PKAIRKLHFEDEV; partner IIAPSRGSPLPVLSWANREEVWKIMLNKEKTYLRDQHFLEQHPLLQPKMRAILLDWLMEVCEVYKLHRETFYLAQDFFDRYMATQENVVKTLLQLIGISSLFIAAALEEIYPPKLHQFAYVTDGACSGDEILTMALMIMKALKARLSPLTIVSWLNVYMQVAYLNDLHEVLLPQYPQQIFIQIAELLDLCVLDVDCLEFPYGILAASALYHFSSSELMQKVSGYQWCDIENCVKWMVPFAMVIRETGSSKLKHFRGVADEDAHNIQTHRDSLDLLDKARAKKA
Change,normalised enrichment score
PKAIKKLHFEDEV [R5K],1.62
PKAIRKLHFFDEV [E10F],2.89
PTAIRKLHFEDEV [K2T],4.84
PKAIRKLHFMDEV [E10M],2.59
PKAIRKRHFEDEV [L7R],0.182
PKAIRKLTFEDEV [H8T],5.52
PKHIRKLHFEDEV [A3H],5.08
PKAIRKLHFNDEV [E10N],3.27
PKAISKLHFEDEV [R5S],0.106
PKAVRKLHFEDEV [I4V],5.58

# Series 2 — technique: RNA Bind-n-Seq; molecule type: RNA; sample: in vitro; tested at: not given; reference: input RNA pool; reading: higher = stronger binding
# Target: RING finger protein unkempt homolog, zinc fingers 1-6, GST-SBP tag (UNK, Homo sapiens, UniProt Q9C0B0, residues 30-357)
# Chain of UniProt Q9C0B0 (30-357, looked up): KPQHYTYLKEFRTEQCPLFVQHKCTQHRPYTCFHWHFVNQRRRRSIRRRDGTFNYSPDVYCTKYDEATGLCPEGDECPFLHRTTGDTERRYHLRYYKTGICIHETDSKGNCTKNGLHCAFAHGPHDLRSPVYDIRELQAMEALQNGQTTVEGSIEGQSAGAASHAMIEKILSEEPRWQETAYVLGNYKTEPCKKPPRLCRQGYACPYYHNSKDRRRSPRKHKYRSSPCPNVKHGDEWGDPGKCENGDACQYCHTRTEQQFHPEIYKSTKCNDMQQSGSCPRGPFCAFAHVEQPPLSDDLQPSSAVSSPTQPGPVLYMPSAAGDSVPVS
# Setting: RNA with constant flanks, human and mouse sites, ends assumed
# All sequences stand within: GGGAGUUCUACAGUCCGACGAUC … CAACAGAGGAUUGAGCAUCA
Strand,bound/input enrichment
CAGCCUGGGGACACAGCCAAGGCUGUGGUGGCACAAGCUGUCCGUCAUCUCCCGCAGUCUGUUAGGAUUUACAUCAGAGCAGCAGAGCUAGAAACAGACAUUCGAGCAAAGAAGCGUGUU,0.268 ratio
ACUCCGAGCUCCUUUGAUACCCACUUCCAAAGUCCUUCCAGUAGUGUGGGCUCCCCUCCUGUGCUGUAUAUACCAGGCCAGUCUCCACUCCUCACAAGGAUCUAUGAUUGAGCUGCGCAA,0.228 ratio
AUCUAAACUUAGAUGGAGUUGGUCCAAUGAGGGAACAUCUGGGUUAUGCCUUUUUUAAAGUAGCUUUUAGGAACUGUCAGCAUGUUGUUGUUGAAGUGUGGAGCUGUAACUCUGCGUGGA,2.64 ratio
AUCAAGAGCUGGACGUUUUCCUCUCAGCACAGUAAGAAAGAUGACUUACUCCAUAAGUUGGACACCGGGUUUCGGCUGGACUCACUGCAUACCAUCCUGCAGCAGGAAGUCCUGCUGCAA,0.132 ratio
AGUGUAGUAUUUAUUUCUAAUUUGCCUAACAAAGGAUAUUCUACAGAAGAAAUUUACAACUUAGCAAAACCAUUUGGUGCUUUGAAGGACAUUUUGGUUUUAUCAUCUCAUAAAAAGGCA,4.08 ratio
ACACCUUUGUUUCUUGCUGCCCGAGAGGGAAGUUAUGAAGCGGCCAAAAUCCUGUUAGACCAUUUUGCCAACCGGGACAUCACUGACCACAUGGACCGCCUUCCCCGGGAUGUGGCUCGG,0.207 ratio

# Series 3 — technique: RNA Bind-n-Seq; molecule type: RNA; sample: in vitro; tested at: 20 nM; setting: 6-mer, flanks averaged, single round; added: 150 mM LiCl; reference: input library; reading: higher = stronger binding
# Target: TAR DNA-binding protein 43, full length, His tag (TARDBP, Homo sapiens, UniProt Q13148, residues 1-414)
Strand,6-mer enrichment (R)
UAAGCG,0.926
UUUCGC,0.961
UACACG,0.845
ACUCCG,0.899
GCACGU,0.936
GUCACC,0.921
UUACGU,0.989
UGAAGG,1.06
GUGGCG,1.28
GUUCAU,0.934
GUUAUC,0.939

# Other studies, line by line
Substance,target,test,test system,conditions,scale,measurement,value
"PhoQ, residues 284 288 289 292 302 303 GLASVI","PhoP, residues 12 14 15 18 19 VQALL (Escherichia coli, UniProt P23836)","Sort-seq, item: YFP reporter",E. coli,"PhoQ-PhoP variant library, added: 10 µM Mg2+","reference: high Mg2+ state, higher = stronger signaling",fold induction,11.4
